Assay results from different studies.
Lines come from different studies, so protocols differ. ± marks the error that the study gave.

NC(=O)c1cnc2[nH]ccc2c1N[C@@H]1[C@@H]2CC3C[C@H]1C[C@@](O)(C3)C2 — CD4+ central memory change (flow cytometry; Japanese healthy men, blood; oral, 100 mg twice daily, 72 h after day 7 dose; relative to: baseline): -0.75%
O=C(O)c1ccnc(C(=O)O)c1 — viability (OCI-Ly1; 0.5 µM, 120 h): 144%
NCCCOc1cc(NC(=O)c2cccc(C(=O)Nc3cc(OCCCN)c4ccccc4n3)n2)nc2ccccc12 — delta Tm (double-stranded DNA; FRET melting; 1 µM, pH 7.4, 60 mM potassium, together with: oligonucleotide 200 nM): 0.1 ± 0.2 K
CC(C)NCC(O)c1ccc(O)c(O)c1 (centres unmarked) — sarcomere length (ventricular cardiomyocytes, C57BL/6 mouse; dose not given, 0.464 s): 1.65 µm
O=C(/C=C/C=C/C=C/C1CCCCC1)NC1=C[C@@](O)(/C=C/C=C/C=C/C(=O)NC2=C(O)CCC2=O)[C@@H]2O[C@@H]2C1=O — GI50 (PaTu 8988t; CellTiter-Glo; 78 h): 24.7 µM
Oc1ccccc1-c1n[nH]cc1-c1ccnc2ccccc12 — log2 fold change (STE11 (Candida albicans); kinase binding, MIB/MS competition; Candida albicans lysate; 1 µM; relative to: DMSO): 0.12
NCCCOc1cc(NC(=O)c2cc(Cl)cc(C(=O)Nc3cc(OCCCN)c4ccccc4n3)n2)nc2ccccc12 — ΔTm (human telomeric G-quadruplex DNA; FRET melting; 1 µM, pH 7.4, together with: 60 mM potassium): 35.5 ± 0.7 K
COc1ccccc1S(=O)(=O)Nc1ccc2c(c1)CN(C)C(=O)N2 — viability (OCI-Ly1; 1 µM, 120 h): 58.1%
COc1cccc2c1C(=O)c1c(O)c3c(c(O)c1C2=O)C[C@@](O)(C(=O)CO)C[C@@H]3O[C@H]1C[C@H](N)[C@H](O)[C@H](C)O1 — necrosis (COS-7; 100 µM, 24 h, 0.1% DMSO, unit not given; relative to: control): 9.15 ± 0.83
Nc1ncnc2c1ncn2[C@@H]1O[C@H](C[C@@H](N)CC[C@H](N)C(=O)O)[C@@H](O)[C@H]1O — viability (OCI-Ly1; 0.1 µM, 120 h): 113%
C[C@H]1C[C@H]2CSC(N)=N[C@@]2(c2nc(NC(=O)c3ccc(OC(F)F)cn3)cs2)CO1 — percent change from baseline (measured: total Aβ; healthy adults, plasma; 400 mg single dose, 8 h post-dose; relative to: placebo): -60.9%
COc1ccc(CCc2nc3cc(-c4c(C)noc4C)ccc3n2C[C@H](C)N2CCOCC2)cc1Cl — viability (OCI-Ly1; 0.1 µM, 120 h): 130%
CCC(=O)NS(=O)(=O)c1ccc(-c2c(-c3ccccc3)noc2C)cc1 — confluence (COS-7; 50 µM, 24 h, 0.1% DMSO, unit not given; relative to: vehicle control): 0.91 ± 0.04
Cn1cc(-c2ccc(-c3cncc(Cl)c3N3CCC4(CCNC4=O)CC3)cc2)cn1 — fold change in expression (COLO 205; microarray, measured: NEAT1; concentration not given, 6 h; relative to: untreated cells): 3.99
NCCOc1cc(NC(=O)c2cc(OCc3ccc(F)cc3)cc(C(=O)Nc3cc(OCCN)c4ccccc4n3)n2)nc2ccccc12 — delta Tm (double-stranded DNA; FRET melting; 1 µM, pH 7.4, 60 mM potassium, together with: oligonucleotide 200 nM): 0.3 ± 0.1 K
c1coc(-c2n[nH]cc2-c2ccnc3ccccc23)c1 — log2 fold change (YPK1 (Candida albicans); kinase binding, MIB/MS competition; Candida albicans lysate; 10 µM; relative to: DMSO): -0.06
CCCc1cc(C)[nH]c(=O)c1CNC(=O)c1cc(-c2ccc(N3CCN(C(C)C)CC3)nc2)cc2c1cnn2C(C)C — viability (OCI-Ly1; 1 µM, 120 h): 76.3%

Some of these lines once more:
Nc1ncnc2c1ncn2[C@@H]1O[C@H](C[C@@H](N)CC[C@H](N)C(=O)O)[C@@H](O)[C@H]1O — viability (OCI-Ly1; 0.1 µM, 120 h): 113%
